Published values gathered from unrelated publications.
Each numbered part is a random draw from the data of one study; scales do not carry over between parts. Substitutions count along the parent as printed.

Set 1
Target: Sal-like protein 4, full length isoform A (SALL4, Homo sapiens, UniProt Q9UJQ4, residues 1-1053)
Sequence of UniProt Q9UJQ4 (whole entry, looked up): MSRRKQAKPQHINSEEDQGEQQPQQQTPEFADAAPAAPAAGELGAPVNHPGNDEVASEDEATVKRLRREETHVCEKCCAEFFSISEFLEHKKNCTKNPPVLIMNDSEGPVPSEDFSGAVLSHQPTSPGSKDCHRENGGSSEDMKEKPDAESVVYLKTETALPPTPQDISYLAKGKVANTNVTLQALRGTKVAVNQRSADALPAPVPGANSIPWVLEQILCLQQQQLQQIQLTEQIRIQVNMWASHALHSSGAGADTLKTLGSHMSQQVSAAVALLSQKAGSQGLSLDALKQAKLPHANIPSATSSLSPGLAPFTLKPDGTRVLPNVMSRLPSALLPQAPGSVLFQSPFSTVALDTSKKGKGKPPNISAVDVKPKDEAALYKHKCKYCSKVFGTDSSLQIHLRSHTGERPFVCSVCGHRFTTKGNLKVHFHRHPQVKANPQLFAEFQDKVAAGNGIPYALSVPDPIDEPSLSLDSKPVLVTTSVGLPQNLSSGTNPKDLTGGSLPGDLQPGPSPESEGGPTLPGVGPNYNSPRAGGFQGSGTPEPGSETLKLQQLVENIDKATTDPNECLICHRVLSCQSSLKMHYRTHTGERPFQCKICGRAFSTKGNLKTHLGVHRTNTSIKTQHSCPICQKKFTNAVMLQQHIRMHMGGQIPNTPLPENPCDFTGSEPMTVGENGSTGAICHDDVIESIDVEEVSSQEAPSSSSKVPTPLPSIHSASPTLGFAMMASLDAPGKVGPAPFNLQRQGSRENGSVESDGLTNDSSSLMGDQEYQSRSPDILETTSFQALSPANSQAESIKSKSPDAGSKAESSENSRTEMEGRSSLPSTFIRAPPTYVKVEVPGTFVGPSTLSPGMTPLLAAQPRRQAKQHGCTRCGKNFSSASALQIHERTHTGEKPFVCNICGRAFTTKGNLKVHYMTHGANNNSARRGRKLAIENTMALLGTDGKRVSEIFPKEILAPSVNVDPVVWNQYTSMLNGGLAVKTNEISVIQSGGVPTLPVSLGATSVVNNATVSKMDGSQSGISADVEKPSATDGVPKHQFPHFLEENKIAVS
Technique: universal PBM
Molecule type: double-stranded DNA, one strand shown
Sample: in vitro
Concentration: 600 nM
Notes: 8-mer, flanks averaged, mean of replicates
Reading: higher = stronger binding
Sequence	E-score
GATCAAAA	0.167
GCAATCAA	0.0431
AGATTATA	0.261
CGTGTTAG	-0.00142
GCATTCGC	-0.104
GGGGGAAC	-0.35
AGGGCACA	0.053
AGACGAGA	-0.0582
TAAGCCGA	0.0698

Set 2
Target: CCNA1, cyclin fold, Cln2 fusion (human)
Technique: yeast growth competition, sequencing
Sample: yeast
Notes: weak parent motif
Reference: not given
Reading: higher = stronger binding
Starting sequence: BRCA2 docking peptide (human); PSIKRNLLNEFDR
Substitution	normalised enrichment score
I3W	0.412
L7M	0.251
F11S	-0.111
F11R	0.165
D12P	0.614
E10D	0.669
S2N	0.283
R5P	0.562
L7P	0.153
K4A	0.38

Set 3
Target: Fragile X messenger ribonucleoprotein 1, C-terminal low-complexity region (Fmr1, Mus musculus, UniProt P35922)
Technique: RNA Bind-n-Seq
Molecule type: RNA
Sample: in vitro
Concentration: 200 nM
Notes: whole 134-nt RNA, ends assumed
Added: 150 mM KCl
Reference: input library
Reading: higher = stronger binding
All sequences stand within: GGGAGUUCUACAGUCCGACGAUC … UGGAAUUCUCGGGUGUCAAGG
Sequence	log2 enrichment
GUCCUGUGCUACACAUCGUAUGUACCGAAUCGGGGUUUGGGGAGGGGUUUUUUUGGGGAAAGUAUUAUGUUACGCCGUUCGGAUCUGCAC	0.573
AAGUCCUGUGCUACACAUCGUAUGUACCGAAUCGGGUUUUUGGGUUUUUGGGUGGGAAAGUAUUAUGUUACGCCGUUCGGAUCUGCACUU	0.819
CUCAAGUCCUGUGCUACACAUCGUAUGUACCGAAUCGGUUUUUGGUGGUUUGGAAAGUAUUAUGUUACGCCGUUCGGAUCUGCACUUCCA	-0.369
UCCUGUGCUACACAUCGUAUGUACCGAAUCGGGGUUUUUGGGUUUUUGGGGUUUUUGGGAAAGUAUUAUGUUACGCCGUUCGGAUCUGCA	0.503
AAGUCCUGUGCUACACAUCGUAUGUACCGAAUCGGGUUUUUGGGAAAGGGUUUGGGAAAGUAUUAUGUUACGCCGUUCGGAUCUGCACUU	0.472
UCCUGUGCUACACAUCGUAUGUACCGAAUCGGGGCCCCCGGGCCCCCGGGCCCCCGGGGAAAGUAUUAUGUUACGCCGUUCGGAUCUGCA	-1.1

Other studies, line by line
Substance	target	assay	system	setting	how to read	quantity	result
PhoQ, residues 284 288 289 292 302 303 TTCLQL	PhoP, residues 12 14 15 18 19 TTLRV (Escherichia coli, UniProt P23836)	Sort-seq, item: YFP reporter	E. coli	PhoQ-PhoP variant library, added: 10 µM Mg2+	reference: high Mg2+ state, higher = stronger signaling	fold induction	6.57

For quick reference, copied from above (set 2):
Substitution	normalised enrichment score
F11S	-0.111
S2N	0.283
E10D	0.669
